Measurements collected from several papers.
A part holds a random share of what one study measured. Positions count from the first letter of the parent shown.

Sample 1
Target: Protein C-ets-1 (ETS1, Homo sapiens, UniProt P14921, residues 1-441, Y397A, full length assumed)
Method: protein-binding microarray
Molecule type: double-stranded DNA, one strand shown
Medium: in vitro
Concentration: not given
Notes: k-mer, scored over probes, only values ≥0.25
Direction: higher = stronger binding
Target sequence (chain): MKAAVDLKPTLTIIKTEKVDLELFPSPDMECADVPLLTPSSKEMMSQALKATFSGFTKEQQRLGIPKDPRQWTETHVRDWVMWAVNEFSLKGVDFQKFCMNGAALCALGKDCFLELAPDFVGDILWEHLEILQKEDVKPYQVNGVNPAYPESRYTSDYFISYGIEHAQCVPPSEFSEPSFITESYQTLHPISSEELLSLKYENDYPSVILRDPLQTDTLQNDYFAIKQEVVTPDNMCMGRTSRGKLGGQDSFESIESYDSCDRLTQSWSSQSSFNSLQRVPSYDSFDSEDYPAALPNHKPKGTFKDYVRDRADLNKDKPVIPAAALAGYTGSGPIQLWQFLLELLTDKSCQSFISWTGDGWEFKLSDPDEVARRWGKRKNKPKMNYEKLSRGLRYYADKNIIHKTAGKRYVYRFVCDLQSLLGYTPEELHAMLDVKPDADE
For `ACAAAAGC`, the E-score was 0.311.
`ATTGCCAA` has an E-score of 0.311.
For `CCCTCCCA`, the E-score was 0.311.
For `GGATGTAA`, the E-score was 0.357.
For `GCAAACTA`, the E-score was 0.267.
For `ACAACACT`, the E-score was 0.271.
The E-score of `ATATGGCA` is reported as 0.33.
The E-score of `AATTTGCC` is reported as 0.268.

Sample 2
Target: CCNB1, cyclin fold, Cln2 fusion (human)
Method: yeast growth competition, sequencing
Medium: yeast
Notes: strong parent motif
Baseline: not given
Direction: higher = stronger binding
Starting sequence: viral docking peptide; YKVKRRLVFGADD
Under “normalised enrichment score”, `YKVKRRLVFGFDD [A11F]` is recorded as 3.3.
`YVVKRRLVFGADD [K2V]` — result for “normalised enrichment score”: 3.76.
`YKVKRGLVFGADD [R6G]`: “normalised enrichment score” 0.421.
`YKVKLRLVFGADD [R5L]` — result for “normalised enrichment score”: 0.743.
Under “normalised enrichment score”, `YYVKRRLVFGADD [K2Y]` is recorded as 3.3.
Under “normalised enrichment score”, `YKNKRRLVFGADD [V3N]` is recorded as 0.18.
Under “normalised enrichment score”, `YKVKRYLVFGADD [R6Y]` is recorded as 0.356.
`YKRKRRLVFGADD [V3R]`: “normalised enrichment score” 0.395.
`YNVKRRLVFGADD [K2N]`: “normalised enrichment score” 4.48.
For `YKVKRRKVFGADD [L7K]`, “normalised enrichment score” read 0.564.
`YKVKRRLTFGADD [V8T]` — result for “normalised enrichment score”: 4.85.
`YKVKRRLVFTADD [G10T]` — result for “normalised enrichment score”: 3.66.
`YKVKRRLVFDADD [G10D]`: “normalised enrichment score” 5.53.
Under “normalised enrichment score”, `YKEKRRLVFGADD [V3E]` is recorded as 0.471.
`YKVKRRLVFGAQD [D12Q]`: “normalised enrichment score” 2.4.
Under “normalised enrichment score”, `YKVKRRLVFGAID [D12I]` is recorded as 1.84.
`YKVKRRLVEGADD [F9E]` — result for “normalised enrichment score”: 0.485.
`YKVKRRLVAGADD [F9A]`: “normalised enrichment score” -0.236.
For `YKVKRRLVCGADD [F9C]`, “normalised enrichment score” read 0.456.
`YKVKRNLVFGADD [R6N]`: “normalised enrichment score” 0.514.
For `YKVKRRLVIGADD [F9I]`, “normalised enrichment score” read 0.797.
For `YKVKRRLHFGADD [V8H]`, “normalised enrichment score” read 3.29.
`YKVKRDLVFGADD [R6D]` — result for “normalised enrichment score”: 0.259.
Under “normalised enrichment score”, `YKLKRRLVFGADD [V3L]` is recorded as 1.47.
`YKVARRLVFGADD [K4A]`: “normalised enrichment score” 2.88.

Sample 3
Target: UDP-N-acetylglucosamine--peptide N-acetylglucosaminyltransferase 110 kDa subunit (OGT, Homo sapiens, UniProt O15294)
Effect on: binding
Method: phage display NGS
Molecule type: peptide
Concentration: concentration not given
Notes: panning round 2
Baseline: input library
Target sequence (O15294 1-1046): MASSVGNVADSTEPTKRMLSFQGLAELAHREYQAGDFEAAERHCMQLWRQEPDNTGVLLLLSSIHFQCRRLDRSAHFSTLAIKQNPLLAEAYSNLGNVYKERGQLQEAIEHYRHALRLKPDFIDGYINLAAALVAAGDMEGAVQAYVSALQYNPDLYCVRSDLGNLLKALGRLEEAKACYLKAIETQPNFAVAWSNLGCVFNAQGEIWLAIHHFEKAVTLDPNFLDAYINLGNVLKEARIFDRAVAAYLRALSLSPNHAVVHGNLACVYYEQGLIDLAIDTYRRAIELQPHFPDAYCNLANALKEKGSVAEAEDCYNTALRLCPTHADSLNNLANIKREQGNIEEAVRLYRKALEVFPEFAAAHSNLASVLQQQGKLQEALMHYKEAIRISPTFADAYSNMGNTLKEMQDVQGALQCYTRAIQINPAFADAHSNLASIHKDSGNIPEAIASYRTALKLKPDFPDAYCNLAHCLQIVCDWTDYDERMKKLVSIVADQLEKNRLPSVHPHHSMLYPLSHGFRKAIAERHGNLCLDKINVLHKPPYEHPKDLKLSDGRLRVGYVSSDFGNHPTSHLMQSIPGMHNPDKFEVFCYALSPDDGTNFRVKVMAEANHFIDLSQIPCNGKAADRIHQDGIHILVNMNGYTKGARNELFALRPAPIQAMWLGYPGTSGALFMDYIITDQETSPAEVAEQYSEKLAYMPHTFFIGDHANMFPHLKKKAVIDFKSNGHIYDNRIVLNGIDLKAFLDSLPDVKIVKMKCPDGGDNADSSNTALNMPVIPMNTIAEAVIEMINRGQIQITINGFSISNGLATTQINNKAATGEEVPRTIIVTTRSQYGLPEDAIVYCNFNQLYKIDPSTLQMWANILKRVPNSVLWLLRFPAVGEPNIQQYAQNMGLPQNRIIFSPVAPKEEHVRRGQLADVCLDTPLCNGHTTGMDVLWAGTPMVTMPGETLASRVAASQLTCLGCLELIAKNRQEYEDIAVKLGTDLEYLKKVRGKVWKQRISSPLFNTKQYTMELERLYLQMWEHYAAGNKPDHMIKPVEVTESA
Under “enrichment fold change”, `HFRMGHNRETTHVG` is recorded as 6.27.
`TYKNDRYLPFYPIII` — result for “enrichment fold change”: 13.5.
Under “enrichment fold change”, `TWRHVVEANHVHMPK` is recorded as 12.4.
Under “enrichment fold change”, `HVPEGHHYLGHVHFL` is recorded as 4.46.
For `HYYQHPPIGDHHMAI`, “enrichment fold change” read 3.83.

Sample 4
Target: tungstate, free oxyanion
Method: microfluidic competitive inhibition
Medium: in vitro, cell-free expressed
Concentration: not given
Notes: derived from inhibition constants, unchanged parent 2230 nM
Direction: lower = stronger binding
Starting sequence: PafA, mature enzyme, eGFP fusion (Elizabethkingia meningoseptica, UniProt Q9KJX5); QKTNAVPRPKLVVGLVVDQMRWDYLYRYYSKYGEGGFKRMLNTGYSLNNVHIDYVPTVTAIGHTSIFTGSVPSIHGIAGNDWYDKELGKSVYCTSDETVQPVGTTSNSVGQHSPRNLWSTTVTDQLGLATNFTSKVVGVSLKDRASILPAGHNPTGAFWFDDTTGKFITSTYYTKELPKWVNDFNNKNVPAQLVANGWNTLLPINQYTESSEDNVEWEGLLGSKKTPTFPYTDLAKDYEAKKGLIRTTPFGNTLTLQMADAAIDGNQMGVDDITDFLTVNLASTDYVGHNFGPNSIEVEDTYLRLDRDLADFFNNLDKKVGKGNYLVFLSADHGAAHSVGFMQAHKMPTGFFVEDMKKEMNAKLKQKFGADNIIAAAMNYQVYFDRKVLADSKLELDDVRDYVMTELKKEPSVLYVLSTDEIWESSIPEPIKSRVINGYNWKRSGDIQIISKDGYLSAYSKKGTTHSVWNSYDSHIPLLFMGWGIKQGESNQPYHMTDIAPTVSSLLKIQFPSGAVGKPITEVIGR
`Q343G` — result for “oxyanion analog dissociation constant”: 1.67 µM.
`M481G`: “oxyanion analog dissociation constant” 2.5 µM.
Under “oxyanion analog dissociation constant”, `L507G` is recorded as 1.15 µM.
Under “oxyanion analog dissociation constant”, `E239G` is recorded as 1.72 µM.
`N491G`: “oxyanion analog dissociation constant” 2.12 µM.
`P56V`: “oxyanion analog dissociation constant” 1.53 µM.
`Q510V`: “oxyanion analog dissociation constant” 2.32 µM.
`N252V`: “oxyanion analog dissociation constant” 4.75 µM.

Sample 5
Target: PABPC1L2, full length, GST fusion (mouse, UniProt A0ABA7IW68)
Method: RNAcompete
Molecule type: RNA
Medium: in vitro
Concentration: 20 nM
Notes: 7-mer, probes averaged, single round
Baseline: mean of 7-mers
Direction: higher = stronger binding
Residues (chain): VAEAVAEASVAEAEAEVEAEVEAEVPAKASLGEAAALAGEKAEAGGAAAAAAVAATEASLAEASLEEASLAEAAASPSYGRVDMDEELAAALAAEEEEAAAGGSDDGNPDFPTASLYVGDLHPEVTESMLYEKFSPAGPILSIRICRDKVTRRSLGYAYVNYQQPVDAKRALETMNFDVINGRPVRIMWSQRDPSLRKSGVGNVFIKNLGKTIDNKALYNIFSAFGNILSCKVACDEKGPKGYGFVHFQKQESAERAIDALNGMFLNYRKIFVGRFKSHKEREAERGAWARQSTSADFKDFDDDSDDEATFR
For `CCACGGA`, the 7-mer Z-score was 0.0968.
With `CUACGGC` the 7-mer Z-score was -0.365.
For `UUUGACA`, the 7-mer Z-score was -0.211.
`UAGCAGU` has a 7-mer Z-score of -0.311.
`UGCACCA` gave a 7-mer Z-score of -0.204.
The 7-mer Z-score of `AACCUUU` is reported as -0.15.
For `GGGGGCU`, the 7-mer Z-score was 0.506.
For `CCUUUGG`, the 7-mer Z-score was -0.421.

For quick reference, copied from above (sample 2):
`YKVARRLVFGADD [K4A]`: “normalised enrichment score” 2.88.
`YKVKRNLVFGADD [R6N]`: “normalised enrichment score” 0.514.
`YKVKRRLTFGADD [V8T]` — result for “normalised enrichment score”: 4.85.
